Measurements from different studies.
A part holds a random share of what one study measured.

Sample 1 — technique: protein binding microarray; form: double-stranded DNA, one strand shown; matrix: in vitro; concentration: not given; reference: not given; reading: higher = stronger binding
Target: Histone acetyltransferase KAT6A, winged helix 2, GST fusion (KAT6A, Homo sapiens, UniProt Q92794, residues 85-181)
Setting: 8-mer, flanks averaged, mean of 2 arrays, mostly near background
Residues (chain): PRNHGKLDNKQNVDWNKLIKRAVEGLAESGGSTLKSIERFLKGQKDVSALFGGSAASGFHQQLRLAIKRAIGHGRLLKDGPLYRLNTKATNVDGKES
`AGTTTTCG` gave an E-score of 0.195.
For `ATATGGAG`, the E-score was -0.013.
With `ACACTACC` the E-score was -0.206.
For `CTTTACGC`, the E-score was -0.0483.
With `ACGAAAGG` the E-score was 0.0181.

Sample 2 — technique: protein-binding microarray; form: double-stranded DNA, one strand shown; matrix: in vitro; concentration: 2200 nM top; setting: 60-bp whole probe; together with: salmon DNA 0.4 mg/ml; reference: random background probes; reading: higher = stronger binding; all sequences stand within: GCCTAGCAC … GTCTTGATTCGCTTGACGCTGCTG
Target: Interferon regulatory factor 7, full length, phosphomimetic (IRF7, Homo sapiens, UniProt Q92985, residues 1-503, S471D/S472D/S475D/S476D/S477D/S483D/S484D/S487D)
Sequence of UniProt Q92985 (whole entry, unmodified, looked up): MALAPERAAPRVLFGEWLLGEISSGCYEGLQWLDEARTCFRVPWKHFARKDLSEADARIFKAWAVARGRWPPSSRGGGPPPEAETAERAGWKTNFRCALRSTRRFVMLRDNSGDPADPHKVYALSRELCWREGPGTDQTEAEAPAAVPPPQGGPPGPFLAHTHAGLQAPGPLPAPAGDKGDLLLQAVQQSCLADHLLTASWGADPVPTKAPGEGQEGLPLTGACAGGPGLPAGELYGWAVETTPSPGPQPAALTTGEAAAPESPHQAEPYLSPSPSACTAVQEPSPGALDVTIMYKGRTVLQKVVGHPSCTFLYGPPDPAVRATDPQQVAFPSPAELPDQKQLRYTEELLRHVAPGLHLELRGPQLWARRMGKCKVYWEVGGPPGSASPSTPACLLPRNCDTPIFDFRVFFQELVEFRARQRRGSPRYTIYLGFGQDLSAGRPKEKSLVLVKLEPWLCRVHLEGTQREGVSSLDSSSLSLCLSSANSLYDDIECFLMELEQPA
`CAGAATCCCCTTCTACTCTCGTGCTAG` — result for “fitted relative affinity”: 1.05 z-score.
`GAAGGACTGGGTATCGGGACGTGCTAG`: “fitted relative affinity” -0.755 z-score.
`TTAGATTTCAGTTCCGGTTAGTGCTAG` — result for “fitted relative affinity”: 2.85 z-score.
`GTCGGTATCCTACTGCTGACGTGCTAG` — result for “fitted relative affinity”: 1.3 z-score.
For `TTATAACTGGGGTTTCGATTAGTGCTA`, “fitted relative affinity” read 3.07 z-score.
Under “fitted relative affinity”, `GACGGTTTAGGGACTGGGGACGTGCTA` is recorded as -0.131 z-score.

Sample 3 — technique: DNA-protein interaction ELISA; form: double-stranded DNA, one strand shown; matrix: in vitro, bacterial lysate; concentration: not given; setting: whole dsDNA probe, crude lysate protein; reference: highest signal in screen; reading: higher = stronger binding
Target: Probable WRKY transcription factor 50, DNA-binding domain (WRKY50, Arabidopsis thaliana, UniProt Q8VWQ5, residues 99-173)
Residues (chain): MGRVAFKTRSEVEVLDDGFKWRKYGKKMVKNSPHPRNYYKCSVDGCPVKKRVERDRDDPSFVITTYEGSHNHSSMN
For `AAAAAAACAGCTCGGTGCCACTGTGGAAAA`, the relative absorbance was 20.6 % of maximum.
`AAAAAAACGCTCAAGTCTATCAGTAGAAAA` gave a relative absorbance of 36.7 % of maximum.
`AAAAAAAGGGTGCTATTCGTCGACACAAAA` gave a relative absorbance of 30.7 % of maximum.
With `AAAAAAGGCCACGGTAACCCCTTTTGAAAA` the relative absorbance was 10.3 % of maximum.

Other studies, line by line
For `PhoQ, residues 284 288 289 292 302 303 TLASMF`, the fold induction was 0.951 (PhoP, residues 12 14 15 18 19 LHATL (Escherichia coli, UniProt P23836); Sort-seq, refers to: YFP reporter; E. coli; PhoQ-PhoP variant library, together with: 10 µM Mg2+; reference: high Mg2+ state, higher = stronger signaling).
